Measurements pooled from the literature.
Each numbered part is a random draw from the data of one study; scales do not carry over between parts.

Series 1
Target: Histone acetyltransferase KAT6A, winged helix 1, GST fusion (KAT6A, Homo sapiens, UniProt Q92794, residues 1-85)
Method: protein binding microarray
Form: double-stranded DNA, one strand shown
Medium: in vitro
Concentration: not given
Setting: 8-mer, flanks averaged, mean of 2 arrays, mostly near background
Relative to: not given
Direction: higher = stronger binding
Construct (chain): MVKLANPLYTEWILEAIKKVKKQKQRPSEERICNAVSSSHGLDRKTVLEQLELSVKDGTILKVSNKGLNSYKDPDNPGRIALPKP
Sequence | E-score
AACTCTAT | -0.163
GGACAACC | -0.0421
GCCGAATA | 0.112
CCTCACTA | -0.0777
CCCTGTGC | -0.00137
AAAAAGCT | 0.0284
TGTCAGAA | -0.148
AACTTGAT | -0.0723
GATAGTAC | 0.0329
AGTATTCG | -0.0689
ATGCAAGG | 0.00263
GCTCGGTA | 0.18
CCCAGAAA | -0.254
TGACAACA | -0.126
CTGTACCC | 0.0975
AGTGCTTA | -0.0789
ATCCAAGC | -0.215
AATAACCT | -0.2
AAATACGA | -0.14

Series 2
Target: RING finger protein unkempt homolog, zinc fingers 1-6, SBP tag (UNK, Homo sapiens, UniProt Q9C0B0, residues 30-357)
Sequence of UniProt Q9C0B0 (30-357, looked up): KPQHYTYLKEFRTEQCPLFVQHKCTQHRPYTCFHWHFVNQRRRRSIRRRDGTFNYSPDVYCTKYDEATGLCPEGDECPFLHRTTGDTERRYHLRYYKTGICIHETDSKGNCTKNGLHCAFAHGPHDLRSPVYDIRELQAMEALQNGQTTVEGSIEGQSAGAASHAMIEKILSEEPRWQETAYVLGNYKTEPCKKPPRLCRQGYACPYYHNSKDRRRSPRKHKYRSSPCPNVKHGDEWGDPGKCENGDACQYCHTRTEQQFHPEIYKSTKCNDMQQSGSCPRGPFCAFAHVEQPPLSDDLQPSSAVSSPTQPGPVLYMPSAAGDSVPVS
Method: RNA Bind-n-Seq
Form: RNA
Medium: in vitro
Concentration: 100 nM
Setting: RNA with constant flanks, vertebrate orthologous sites, ends assumed
Relative to: input RNA pool
Direction: higher = stronger binding
Constant ends, left off below: GGGAGUUCUACAGUCCGACGAUC … CAACAGAGGAUUGAGCAUCA
Sequence | bound/input enrichment [ratio]
CCCAAGCACUGUAGAGGAAGCUGUGCUCGCCUUAGAGCAUUUUUUUCUUGUUUUUGGUUUUAGGGGUGGGUGGGUUGUUGCACACACCUCUGAGGCCAGAGCUGUCGGGUUCACCUUGUA | 0.386
UGGGGGCAUACUCUAUGGAGCUGCUGGACACUUAGCAUUGUUUGAUUUAGAACCUUGACAUACUAGGUAGGCUUGUGGGUUUGUUUGUUUUUUUUAAUUUAAUGAUAUUAAGACUUAAUU | 1.51
CUUUUAACCAAUUAUGUCUGUAAAUGUAUAUUGAGAGAACUGAAAUAUUUAUAAACAGAGUGAUUUAUUUAAGGAAAAGCUCAUUCCUCUUUCGUAUGGUGGUCUGUGUUAAUUACAUUU | 0.764
AUUCAAACCUGUGGUGCCAUGGCCUCAUGUGGAAGGAGUAGAAGUGGAUUUAGAGUCUAUUAGAAGAAAAAACAAGGCCAAAAAAGAACAGGAGCACCAUGCUGGAGGAGAUUCCCAAAA | 0.507
CACAAUCUCUACUUAAGUAGGUUUUUACAUACCAAGUUAAGCCUUCAUUUUACAUAUUUACAGCUUUUCUCCGGAGGAGAUAAAAGAAUCUCAUGCUUAAAGUUACAUGUGGUCUUUGCC | 0.349
AUCAUAGCAGAAGAGCCAAGCAGUAGCAUUGGUGGUUUUUUUCUUUUGUAAAUGUAAAAUUAGAUCCAGACUUUGUUUCCUUAUUCAAUUUUAAAAAUAAAAAAAAUACCUCAGUGCUAU | 0.431
CAGCUAACUCGCUGAUUGGCCGGGCCGCCCACAUCGCUGUCCUCGACUCUGAGAUCUUCCUGGAGAAGUUCUUCCUCGUCGCAGGCCUCAGGUUCUUUCAGUAGAACAACGGCAGAAAUG | 0.456
AGUCCCCUGGGCCGGGACAGAUUUUUUUUUAACGUCUUGAAACUUAAAACUCUGUGCUUGUAGGAGACUGUAACCUUUAAUUUUUUUUUUUUUUUUUAAACAAACAACCUCCACCUCCAG | 2.24

Series 3
Target: Ras GTPase-activating protein-binding protein 1, C-terminal RGG region (G3BP1, Homo sapiens, UniProt Q13283)
Sequence of UniProt Q13283 (whole entry, looked up): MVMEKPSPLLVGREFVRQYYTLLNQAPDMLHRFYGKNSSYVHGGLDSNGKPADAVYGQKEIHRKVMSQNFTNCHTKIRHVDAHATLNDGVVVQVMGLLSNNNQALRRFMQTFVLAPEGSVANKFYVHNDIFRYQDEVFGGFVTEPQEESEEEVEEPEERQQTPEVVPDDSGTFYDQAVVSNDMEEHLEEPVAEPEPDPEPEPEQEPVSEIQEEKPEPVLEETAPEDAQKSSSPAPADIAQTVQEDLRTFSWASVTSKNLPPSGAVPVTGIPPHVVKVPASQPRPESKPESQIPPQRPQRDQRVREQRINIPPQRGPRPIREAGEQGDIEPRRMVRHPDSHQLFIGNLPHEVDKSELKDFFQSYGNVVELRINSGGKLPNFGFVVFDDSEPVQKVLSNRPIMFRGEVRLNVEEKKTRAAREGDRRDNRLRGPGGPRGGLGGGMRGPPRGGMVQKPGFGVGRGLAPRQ
Method: RNA Bind-n-Seq
Form: RNA
Medium: in vitro
Concentration: 1 µM
Setting: whole 134-nt RNA, ends assumed
Together with: 150 mM KCl
Relative to: input library
Direction: higher = stronger binding
Constant ends, left off below: GGGAGUUCUACAGUCCGACGAUC … UGGAAUUCUCGGGUGUCAAGG
Sequence | log2 enrichment
UAACUUUAGAGGAGGAUCUGAAGGAUAUGGCAGUGGACGUGGAUUUGGGGAUGGCUAUAAUGGGUAUGGAGGAGGACCUGGAGGUGGCAA | -1.34
CACAGACAACACGCACAAACACAGACACAGAGGGAAGGGGUUGGGAUGGGGACAGGGUGCACAGCAGGGCGGGGUAGGACCCCAGCCCCU | -0.335
UGGCCCUGGUGGCAUGCGGGGAGUAAGAGGUGGCCUCAUGGAUCGUGGUGGUCCCGGUGGAAUGUUCAGAGGUGGCCGUGGUGGAGACAG | 2.59
UGGCCCUGGUCGCAUGCGGGGAGGAAGAGGUGGCCUCAUGGAUCGUGGUGGUCCCGGUGGAAUGUUCAGAGGUGGCCGUGGUGGAGACAG | 2.03
UCAAGUCCUGUGCUACACAUCGUAUGUACCGAAUCGGGCCGGGGCCGGGCCGGGGAAAGUAUUAUGUUACGCCGUUCGGAUCUGCACUUC | -0.0584
CUCAAGUCCUGUGCUACACAUCGUAUGUACCGAAUCGGAAAAAGGUUUGGUGGAAAGUAUUAUGUUACGCCGUUCGGAUCUGCACUUCCA | -1.23
ACCAUGCAGGUGGGCAUCUUUGGGAAGUGGGGCAAGGGGGGGAUAGGGAGGGGGGUAACACUUUGGGAACAGGUGGUCCAAGGUCGUUUC | 2.12
AAGUCCUGUGCUACACAUCGUAUGUACCGAAUCGGGGUGGGGUUUGGGGUUUGGGGAAAGUAUUAUGUUACGCCGUUCGGAUCUGCACUU | 2.51
AGUCCUGUGCUACACAUCGUAUGUACCGAAUCGGGUUUUGGGGUUUUGGGGUUUUGGAAAGUAUUAUGUUACGCCGUUCGGAUCUGCACU | -0.61

Series 4
Target: RNA binding protein fox-1 homolog 2, RRM domain, GST-SBP tag (RBFOX2, Homo sapiens, UniProt O43251-10, residues 100-194)
Method: RNA Bind-n-Seq
Form: RNA
Medium: in vitro
Concentration: 365 nM
Setting: natural RNA segment, single round, ends assumed
Relative to: no-protein control
Direction: higher = stronger binding
Constant ends, left off below: GGGAGUUCUACAGUCCGACGAUC … UGGAAUUCUCGGGUGCCAA
Construct (chain): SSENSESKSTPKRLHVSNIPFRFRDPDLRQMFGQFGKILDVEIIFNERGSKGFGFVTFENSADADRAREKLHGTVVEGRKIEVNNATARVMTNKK
Sequence | RBNS enrichment (R)
UUUAAUGAUCUCACCCCUGAGUUUCUUUUUCAUUAAAGUAGCUUUCAUUUCUAUUAUUCCAAUUUACUGAUAUGAACAAAUAGAAGGUCCGUGUGAGCAGACGCUCAGAA | 0.3
GGCGUGGGGAGCUGGGCCCCAACAUGGCGGGUCUGCAGAAGAUCAGCAGCUUCUUACCUGUGCGGGAGCGAAAAAGCUGGGCUUCAACAUGGCAGGUCUGUAGGGGUCAG | 0.251
GAGUUCAAGCGUUGUCUUUUUAAGUUUAAAAAACUAUAAAGGGUUGUUUUUACUAGGUAGACUGGCAUCUGGGUAGAGGCUGCCUGGGAUUUUUAUCCCCACAUAACCAG | 0.331
UCCAUUUUUAAGUGCUUAAAUGAGUACUAUAUUGCAAUAAAAAAUGUAGCGAUAUUAAAAAAAAUGUAGCGAUAUAAUUAACCAGCCAUUAAAAAUUUACUUCUACAGAU | 0.7
GCUUUGUUUUGUUUUGUUUUUUUGAGACAGGGAUUCUCUGUGUAGCCCUGGCUGGCCUGGAACUCACUCUGUGGACCAGGCUGGUCUCCAACUCAGAUCCUCCUGCCUCU | 0.59
AAAUCCUCCUGCCCAUACCGUGCACCCUUAGAAGCCUGCGUGUGCAUAGAGCGCCCCCUACUUCCCAGUUAACUCCCAGUUCUUCUCCCUGAGCUUGGUAUUUGUCAUGU | 1.29
UCUCAUUAACUGACAGUAUGCCCAUUUGUUUUUAUGGCUUUCUUAUCUAAACUGCACUGAUGAACUAGAUUAAAGCCUUGGGAGAUUUAUACUAUAAAUUCAGUGAUGGC | 2.73
AUGACACAUUUCGGACCCUCUGAGUCCCCCUGGAGGACUCCCUUGAGGCUGAACCCUCUCAAAGGGCUGUCACCAUCACCUGCUGCUAGGACACUACAAAACAAUCAAAU | 0.339

Some of these lines once more (series 4):
Sequence | RBNS enrichment (R)
UUUAAUGAUCUCACCCCUGAGUUUCUUUUUCAUUAAAGUAGCUUUCAUUUCUAUUAUUCCAAUUUACUGAUAUGAACAAAUAGAAGGUCCGUGUGAGCAGACGCUCAGAA | 0.3
GGCGUGGGGAGCUGGGCCCCAACAUGGCGGGUCUGCAGAAGAUCAGCAGCUUCUUACCUGUGCGGGAGCGAAAAAGCUGGGCUUCAACAUGGCAGGUCUGUAGGGGUCAG | 0.251
GAGUUCAAGCGUUGUCUUUUUAAGUUUAAAAAACUAUAAAGGGUUGUUUUUACUAGGUAGACUGGCAUCUGGGUAGAGGCUGCCUGGGAUUUUUAUCCCCACAUAACCAG | 0.331
UCCAUUUUUAAGUGCUUAAAUGAGUACUAUAUUGCAAUAAAAAAUGUAGCGAUAUUAAAAAAAAUGUAGCGAUAUAAUUAACCAGCCAUUAAAAAUUUACUUCUACAGAU | 0.7
GCUUUGUUUUGUUUUGUUUUUUUGAGACAGGGAUUCUCUGUGUAGCCCUGGCUGGCCUGGAACUCACUCUGUGGACCAGGCUGGUCUCCAACUCAGAUCCUCCUGCCUCU | 0.59
AAAUCCUCCUGCCCAUACCGUGCACCCUUAGAAGCCUGCGUGUGCAUAGAGCGCCCCCUACUUCCCAGUUAACUCCCAGUUCUUCUCCCUGAGCUUGGUAUUUGUCAUGU | 1.29
